Experimental data from different studies.
Compare with care: the assays were run in different laboratories. “And” joins repeats or separate records; there may be more than shown. ± gives the spread as reported.

SMILES = COc1ccc(Cn2cc(CCO[C@@H]3O[C@H]4[C@H](OC[C@H]4O)[C@H]3O)nn2)cc1; tested on = Huh-7; test = cytotoxicity, CellTiter-Glo; conditions = up to 30 µM, 72 h; endpoint = viability; result = not toxic
SMILES = CC(C)C[C@@H](NC(=O)[C@@H](CC(C)C)NC(=O)[C@@H](CC(=O)O)NC(=O)[C@@H](CC(C)C)NC(=O)[C@@H](CC(C)C)NC(=O)[C@@H](CC(C)C)NC(=O)[C@H](NC(=O)[C@@H](CC(=O)O)NC(=O)[C@H](NC(=O)[C@H]1CCCN1C(=O)[C@@H](Cc1ccccc1)NC(=O)[C@@H](CC(C)C)NC(=O)[C@@H](CC(C)C)NC(=O)[C@@H](CC(=O)O)NC(=O)[C@@H](CC(C)C)NC(=O)[C@@H](Cc1ccc(O)cc1)NC(=O)[C@@H](C)NC(=O)[C@@H](CCCNC(=N)N)NC(=O)[C@@H](Cc1c[nH]c2ccccc12)NC(=O)[C@H]1CCCN1C(=O)[C@@H](CC(N)=O)NC(=O)[C@@H](CCC(N)=O)NC(=O)[C@@H](CC(=O)O)NC(=O)[C@@H](CC(=O)O)NC(=O)[C@@H](CSC1CC(=O)N(CCNC(=O)CN2CCN(CC(=O)O)CCN(CC(=O)O)CC2)C1=O)NC(=O)[C@@H](C)N)[C@H](C)O)[C@H](C)O)C(=O)N[C@H](Cc1c[nH]c2ccccc12)C(=O)O (stereo partly drawn) [copper-64 labelled]; test system = C57BL/6 mice, female, B16-F10 melanoma, tumor; conditions = intravenous, 12 h; endpoint = tissue uptake; result = 11.6 %ID/g
SMILES = CN1CCCNC(=O)c2cccc(c2)C(=O)NCCCN(C)CCCNc2cccc3c2C(=O)c2cccc(c2C3=O)NCCC1; tested on = NHEK; test = CCK-8; conditions = 0.5 µM, 48 h; how to read = reference: untreated; endpoint = viability; result = 68.2%
SMILES = COc1cc(Oc2c(OC)cc(C)c(Br)c2O)c(C(=O)O)c(C)c1O; tested on = A549; test = MTT; conditions = 10 or 50 µM, 48 h; endpoint = viability; result = 98.8 ± 4.4%
SMILES = COC1OC(C)C(OS(=O)(=O)O)C(OC2OC(C)C(OS(=O)(=O)O)C(OC3OC(C)C(OS(=O)(=O)O)C(OC4OC(C)C(OS(=O)(=O)O)C(OC5OC(C)C(OS(=O)(=O)O)C(OC6OC(C)C(OS(=O)(=O)O)C(OC7OC(C)C(OS(=O)(=O)O)C(OC8OC(C)C(OS(=O)(=O)O)C(OS(=O)(=O)O)C8OS(=O)(=O)O)C7OS(=O)(=O)O)C6OS(=O)(=O)O)C5OS(=O)(=O)O)C4OS(=O)(=O)O)C3OS(=O)(=O)O)C2OS(=O)(=O)O)C1OS(=O)(=O)O (stereo not drawn); tested on = NIH 3T3; test = CCK-8; conditions = concentration not given, 24 h, low concentration; how to read = reference: untreated cells; endpoint = viability; result = 105% and 103% and 102%
SMILES = O=CCNCCOn1c(=O)n(OCCNCCO)c(=O)n(OCCNCCOn2c(=O)n(OCCNCCO)c(=O)n(OCCNCCO)c2=O)c1=O; tested on = HUVEC; test = cell growth or viability, MTT; conditions = 12.5 µg/mL, 72 h; endpoint = viability; result = 24.3%
SMILES = O=C(N/N=C/c1ccc(C[n+]2ccccc2)cc1)c1cccc(C(=O)N/N=C/c2ccc(C[n+]3ccccc3)cc2)n1; tested on = hp2 hairpin duplex DNA; test = FRET melting; conditions = 1 µM, together with: ds26 10 µM; endpoint = ΔTm; result = 0.7 ± 0.2 °C
SMILES = CC(=O)OC[C@H]1O[C@@H]([Se]c2ccc([N+](=O)[O-])cc2[N+](=O)[O-])[C@H](OC(C)=O)[C@@H](OC(C)=O)[C@@H]1OC(C)=O; tested on = THP-1 macrophages (PMA-differentiated); test = WST-1; conditions = 10 µM, 24 h; endpoint = viability; result = 115 ± 1.8%
SMILES = CCc1c(-c2ccc3[nH]ncc3c2)cnc(N)c1-c1ccc(O)cc1; tested on = CHP-212; test = SRB; conditions = 0.7812 µM; endpoint = viability; result = 102% and 99.9%
SMILES = O=S(=O)(c1ccc(-c2ccc3ncnc(Nc4ccc(OCc5ccc(C(F)(F)F)c(F)c5)c(Cl)c4)c3c2)cc1)N1CCOCC1; tested on = Leishmania major; test = intracellular amastigote growth, luciferase; test system = RAW264.7 macrophages; endpoint = EC50; result = 2.5 µM
SMILES = CCOC(=O)C1CC(C)C2C=CC3CCN(C(=O)C4CCC5C=CC6(CCCN6C(=O)C(Cc6ccccc6Cl)NC(C)=O)C(=O)N54)C3C(=O)N12 (stereo not drawn); tested on = MDA-MB-231; conditions = 180 µM, 24 h; endpoint = viability; result = not toxic
SMILES = CC(=O)OC[C@H]1O[C@@H]([Se]SC[C@H]2O[C@@H]3OC(C)(C)O[C@@H]3[C@H]3OC(C)(C)O[C@H]32)[C@H](OC(C)=O)[C@@H](OC(C)=O)[C@@H]1OC(C)=O; tested on = THP-1 macrophages (PMA-differentiated); test = WST-1; conditions = 10 µM, 24 h; endpoint = viability; result = 45.7 ± 0.7%
SMILES = COC1OC(C)C(OC2OC(C)C(OS(=O)(=O)O)C(OC3OC(C)C(OC4OC(C)C(OS(=O)(=O)O)C(OC5OC(C)C(OC6OC(C)C(OS(=O)(=O)O)C(OC7OC(C)C(OS(=O)(=O)O)C(OS(=O)(=O)O)C7OS(=O)(=O)O)C6OS(=O)(=O)O)C(OS(=O)(=O)O)C5OS(=O)(=O)O)C4OS(=O)(=O)O)C(OS(=O)(=O)O)C3OS(=O)(=O)O)C2OS(=O)(=O)O)C(OS(=O)(=O)O)C1OS(=O)(=O)O (stereo not drawn); tested on = NIH 3T3; test = CCK-8; conditions = concentration not given, 24 h, high concentration; how to read = reference: untreated cells; endpoint = viability; result = 84.6% and 98.6% and 95%
SMILES = c1cc2nc(c1)-c1cccc(n1)CCCc1ccc(cc1)OCCCCCCOc1ccc(cc1)CCC2; tested on = Caco-2; test = cell growth or viability, MTT; conditions = 50 µM, 48 h; endpoint = viability; result = 73.8%
SMILES = Fc1cccc(COc2ccc(Nc3ncnc4ccc(-c5cccc(-n6cccn6)c5)cc34)cc2Cl)c1; tested on = Leishmania major; test = intracellular amastigote growth, luciferase; test system = RAW264.7 macrophages; endpoint = EC50; result = > 15 µM

Excerpt of the above:
SMILES = O=S(=O)(c1ccc(-c2ccc3ncnc(Nc4ccc(OCc5ccc(C(F)(F)F)c(F)c5)c(Cl)c4)c3c2)cc1)N1CCOCC1; tested on = Leishmania major; test = intracellular amastigote growth, luciferase; test system = RAW264.7 macrophages; endpoint = EC50; result = 2.5 µM
SMILES = CCOC(=O)C1CC(C)C2C=CC3CCN(C(=O)C4CCC5C=CC6(CCCN6C(=O)C(Cc6ccccc6Cl)NC(C)=O)C(=O)N54)C3C(=O)N12 (stereo not drawn); tested on = MDA-MB-231; conditions = 180 µM, 24 h; endpoint = viability; result = not toxic
